Experimental data gathered from unrelated publications.
Parts stem from different laboratories: compare values within a part only. Changes are numbered by the printed parent chain.
Sequence of UniProt P11362 (whole entry, looked up): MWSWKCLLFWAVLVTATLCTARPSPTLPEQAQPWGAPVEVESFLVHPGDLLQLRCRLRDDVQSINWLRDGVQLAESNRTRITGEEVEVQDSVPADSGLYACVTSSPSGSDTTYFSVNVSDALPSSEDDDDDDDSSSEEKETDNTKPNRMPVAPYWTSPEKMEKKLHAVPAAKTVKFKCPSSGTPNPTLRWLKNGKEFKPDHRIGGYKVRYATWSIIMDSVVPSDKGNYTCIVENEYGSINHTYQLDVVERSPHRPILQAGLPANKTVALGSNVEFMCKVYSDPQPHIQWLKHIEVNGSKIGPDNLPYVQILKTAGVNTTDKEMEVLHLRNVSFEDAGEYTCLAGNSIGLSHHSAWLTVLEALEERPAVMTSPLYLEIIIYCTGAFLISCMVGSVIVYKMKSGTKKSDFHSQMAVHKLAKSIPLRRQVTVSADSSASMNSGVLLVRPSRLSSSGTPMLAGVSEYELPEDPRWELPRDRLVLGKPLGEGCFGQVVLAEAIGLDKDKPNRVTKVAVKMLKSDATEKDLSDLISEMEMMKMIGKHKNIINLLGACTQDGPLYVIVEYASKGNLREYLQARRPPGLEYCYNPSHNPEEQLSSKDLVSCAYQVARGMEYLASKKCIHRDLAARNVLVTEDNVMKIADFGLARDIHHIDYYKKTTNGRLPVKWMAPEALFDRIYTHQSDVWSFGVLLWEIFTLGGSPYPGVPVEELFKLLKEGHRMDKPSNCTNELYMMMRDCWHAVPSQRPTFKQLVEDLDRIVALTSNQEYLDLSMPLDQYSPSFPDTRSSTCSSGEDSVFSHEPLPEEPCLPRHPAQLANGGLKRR
Sequence of UniProt Q9UL54 (whole entry, looked up): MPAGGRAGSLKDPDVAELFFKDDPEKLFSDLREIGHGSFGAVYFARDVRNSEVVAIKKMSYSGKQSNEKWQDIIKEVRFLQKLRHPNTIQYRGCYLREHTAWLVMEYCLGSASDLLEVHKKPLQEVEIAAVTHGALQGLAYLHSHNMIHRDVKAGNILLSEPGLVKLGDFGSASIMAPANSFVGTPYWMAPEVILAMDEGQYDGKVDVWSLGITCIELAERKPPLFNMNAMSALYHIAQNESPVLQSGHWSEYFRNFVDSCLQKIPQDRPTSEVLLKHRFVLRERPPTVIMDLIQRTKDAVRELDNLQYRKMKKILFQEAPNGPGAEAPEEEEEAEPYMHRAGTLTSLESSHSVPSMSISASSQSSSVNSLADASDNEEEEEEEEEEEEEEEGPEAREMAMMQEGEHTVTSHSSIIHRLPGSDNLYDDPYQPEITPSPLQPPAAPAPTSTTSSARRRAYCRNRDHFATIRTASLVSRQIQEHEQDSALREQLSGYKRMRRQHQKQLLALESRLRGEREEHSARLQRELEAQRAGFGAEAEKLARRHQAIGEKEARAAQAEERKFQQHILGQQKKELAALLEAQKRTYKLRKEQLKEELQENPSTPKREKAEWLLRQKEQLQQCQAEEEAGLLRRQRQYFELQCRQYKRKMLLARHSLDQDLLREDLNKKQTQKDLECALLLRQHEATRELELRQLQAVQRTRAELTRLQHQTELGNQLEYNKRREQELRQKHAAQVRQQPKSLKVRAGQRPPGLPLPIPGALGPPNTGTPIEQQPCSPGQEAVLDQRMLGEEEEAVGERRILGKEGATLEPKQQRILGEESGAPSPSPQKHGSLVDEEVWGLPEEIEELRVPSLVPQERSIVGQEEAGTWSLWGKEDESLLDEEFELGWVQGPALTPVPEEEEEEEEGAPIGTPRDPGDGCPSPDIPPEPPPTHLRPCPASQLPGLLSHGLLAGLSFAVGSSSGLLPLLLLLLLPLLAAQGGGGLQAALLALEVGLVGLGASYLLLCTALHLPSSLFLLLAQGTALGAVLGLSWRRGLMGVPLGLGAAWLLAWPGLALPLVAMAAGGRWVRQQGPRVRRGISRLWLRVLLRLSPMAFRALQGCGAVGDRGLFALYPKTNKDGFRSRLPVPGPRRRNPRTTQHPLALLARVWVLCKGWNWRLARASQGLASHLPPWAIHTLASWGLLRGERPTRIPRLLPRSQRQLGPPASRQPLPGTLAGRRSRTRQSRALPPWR
Sequence of UniProt P52333 (whole entry, looked up): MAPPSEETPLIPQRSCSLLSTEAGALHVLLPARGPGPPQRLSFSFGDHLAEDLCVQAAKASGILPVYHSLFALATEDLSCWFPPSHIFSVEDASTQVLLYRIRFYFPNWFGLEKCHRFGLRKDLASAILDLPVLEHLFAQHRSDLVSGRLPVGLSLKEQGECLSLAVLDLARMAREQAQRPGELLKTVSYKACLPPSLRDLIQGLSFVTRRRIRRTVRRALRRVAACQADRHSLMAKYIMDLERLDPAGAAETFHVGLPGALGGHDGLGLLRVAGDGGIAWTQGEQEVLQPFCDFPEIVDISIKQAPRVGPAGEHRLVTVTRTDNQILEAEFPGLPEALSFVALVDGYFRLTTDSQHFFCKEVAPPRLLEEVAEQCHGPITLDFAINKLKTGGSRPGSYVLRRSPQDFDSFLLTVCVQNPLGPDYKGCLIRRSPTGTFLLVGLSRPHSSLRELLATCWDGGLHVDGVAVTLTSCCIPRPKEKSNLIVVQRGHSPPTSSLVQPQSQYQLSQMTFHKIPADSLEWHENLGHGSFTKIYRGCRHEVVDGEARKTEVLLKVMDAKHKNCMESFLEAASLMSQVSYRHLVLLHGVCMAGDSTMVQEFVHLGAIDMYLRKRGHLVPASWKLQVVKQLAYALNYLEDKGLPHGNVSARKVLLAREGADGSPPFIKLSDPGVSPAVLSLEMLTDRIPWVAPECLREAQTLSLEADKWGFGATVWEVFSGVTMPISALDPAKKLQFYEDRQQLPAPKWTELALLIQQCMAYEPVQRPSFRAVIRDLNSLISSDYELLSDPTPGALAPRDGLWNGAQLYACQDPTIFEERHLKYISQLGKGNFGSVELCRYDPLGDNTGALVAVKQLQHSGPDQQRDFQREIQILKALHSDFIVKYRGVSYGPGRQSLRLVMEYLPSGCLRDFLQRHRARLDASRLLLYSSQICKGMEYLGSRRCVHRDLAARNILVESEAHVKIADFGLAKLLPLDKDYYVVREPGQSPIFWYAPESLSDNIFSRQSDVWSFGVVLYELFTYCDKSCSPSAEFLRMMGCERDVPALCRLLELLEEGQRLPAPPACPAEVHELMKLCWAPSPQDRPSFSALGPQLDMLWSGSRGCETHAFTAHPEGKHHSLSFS
Sequence of UniProt P06239 (whole entry, looked up): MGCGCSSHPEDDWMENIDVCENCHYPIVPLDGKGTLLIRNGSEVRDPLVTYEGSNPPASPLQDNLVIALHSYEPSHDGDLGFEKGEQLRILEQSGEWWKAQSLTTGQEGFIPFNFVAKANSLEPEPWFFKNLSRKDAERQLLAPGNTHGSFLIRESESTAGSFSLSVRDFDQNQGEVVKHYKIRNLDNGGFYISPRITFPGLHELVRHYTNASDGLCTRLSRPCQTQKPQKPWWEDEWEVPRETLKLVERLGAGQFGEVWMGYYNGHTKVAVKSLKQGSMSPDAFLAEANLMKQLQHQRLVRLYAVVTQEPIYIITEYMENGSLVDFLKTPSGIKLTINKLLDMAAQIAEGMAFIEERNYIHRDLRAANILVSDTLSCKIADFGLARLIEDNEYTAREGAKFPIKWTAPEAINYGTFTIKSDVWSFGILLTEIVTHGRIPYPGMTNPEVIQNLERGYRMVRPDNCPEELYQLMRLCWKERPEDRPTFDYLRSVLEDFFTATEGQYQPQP

Set 1 — read-out: enzyme activity; mode: inhibitor; concentration: 0.5 µM; endpoint: remaining activity
SMILES: COc1ccc2c(c[n+](C)c3c4cc5c(cc4ccc23)OCO5)c1OC
LCK (Homo sapiens, UniProt P06239); relative to: control: 89%
JAK3 (Homo sapiens, UniProt P52333); relative to: control: 101%
MAP3K5 (Homo sapiens, UniProt Q99683); relative to: control: 114%
DYRK1B (Homo sapiens, UniProt Q9Y463); radiometric: 102%
TAOK2 (Homo sapiens, UniProt Q9UL54); relative to: control: 95%
FGFR1 (Homo sapiens, UniProt P11362); relative to: control: 96%

Set 2 — method: protein-binding microarray; molecule type: double-stranded DNA, one strand shown; matrix: in vitro; concentration: 0.8 µM; setting: whole 60-bp probe, no competitor; reading: higher = stronger binding; endpoint: fluorescence intensity
Target: Centromere-binding protein 1, full length, N-terminal tag (CBF1, Saccharomyces cerevisiae, UniProt P17106, residues 1-351)
Sequence of UniProt P17106 (whole entry, looked up): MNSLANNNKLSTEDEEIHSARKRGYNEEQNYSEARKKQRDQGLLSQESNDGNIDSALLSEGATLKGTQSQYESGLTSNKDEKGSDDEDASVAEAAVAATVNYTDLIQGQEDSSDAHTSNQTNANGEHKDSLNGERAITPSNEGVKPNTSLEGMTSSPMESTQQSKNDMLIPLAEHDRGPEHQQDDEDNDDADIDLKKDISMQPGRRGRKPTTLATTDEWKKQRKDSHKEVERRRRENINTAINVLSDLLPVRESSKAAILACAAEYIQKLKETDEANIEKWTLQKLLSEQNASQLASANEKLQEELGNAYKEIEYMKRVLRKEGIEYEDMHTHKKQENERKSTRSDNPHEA
GAAACGGTATATCTTCTGGTGGTAAAAACAATCTAGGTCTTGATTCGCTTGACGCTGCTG: 498 a.u.
CTACGAACGAGGAGTGACGTGGACGCGATGAAGTTCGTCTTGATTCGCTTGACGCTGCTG: 516 a.u.
CTAGGTTCTTAAGATCACGTTAGCATCCTGTTGTTCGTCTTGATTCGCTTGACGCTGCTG: 1300 a.u.
CTAGAACTCTTTCAACACCTGACGAATGTATAATTCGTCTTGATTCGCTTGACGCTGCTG: 865 a.u.
CTAGTTCACCGGAAAGCCGTGACAAAAGAGAGTTTCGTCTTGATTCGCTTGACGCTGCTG: 541 a.u.
GAAGTACCAAGACTTCACGGGATTGAAATCGGATAGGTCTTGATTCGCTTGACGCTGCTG: 640 a.u.
CTATCTCCGCATACCACGTCCATATCAGTGAAATTCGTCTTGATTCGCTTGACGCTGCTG: 589 a.u.
CTAAATCTAAAAGCTGATGTAGTAGAAGATCCTTTCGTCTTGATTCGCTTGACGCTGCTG: 506 a.u.

Set 3 — target: CCNB3, cyclin fold, Cln2 fusion (human); method: yeast growth competition, sequencing; matrix: yeast; setting: strong parent motif; relative to: not given; reading: higher = stronger binding; endpoint: normalised enrichment score; parent: viral docking peptide; YKVKRRLVFGADD
YKVKRELVFGADD [R6E]: -0.0977
YKVKRRLVFPADD [G10P]: 2.36
YKVKRRYVFGADD [L7Y]: 0.0732
YKVSRRLVFGADD [K4S]: 0.986
YKMKRRLVFGADD [V3M]: 0.337
YKVLRRLVFGADD [K4L]: 0.409
YKVKCRLVFGADD [R5C]: 0.527
YKVKRRLVFGATD [D12T]: 1.97
YRVKRRLVFGADD [K2R]: 2.3
YKVKRRLVFGWDD [A11W]: 1.33
YKWKRRLVFGADD [V3W]: 0.202
YKVKRRLVFGEDD [A11E]: 2.77
YKVRRRLVFGADD [K4R]: 3.74
YKVKRRLVFGAND [D12N]: 1.92
YAVKRRLVFGADD [K2A]: 1.51
YKHKRRLVFGADD [V3H]: -0.0587
YQVKRRLVFGADD [K2Q]: 2.39
YKVKRRLVAGADD [F9A]: -0.386
YKVKARAVFGADD [R5A L7A]: 0.171
YKPKRRLVFGADD [V3P]: 0.751
YKVPRRLVFGADD [K4P]: 0.517
YKVKRRLHFGADD [V8H]: 1.34
YKVKRRLPFGADD [V8P]: 0.307
YKVKRRLVHGADD [F9H]: 0.0094
YKVKRRLVFGLDD [A11L]: 1.87

Set 4 — method: protein-binding microarray; molecule type: double-stranded DNA, one strand shown; matrix: in vitro; concentration: 250 nM; setting: 60-bp whole probe; added: salmon DNA 0.4 mg/ml; relative to: random background probes; reading: higher = stronger binding; endpoint: log fluorescence; shared flanks, not repeated: GCCTAGCAC … GTCTTGATTCGCTTGACGCTGCTG
Target: Interferon regulatory factor 7, full length, phosphomimetic (IRF7, Homo sapiens, UniProt Q92985, residues 1-503, S101K/S471D/S472D/S475D/S476D/S477D/S483D/S484D/S487D)
Target sequence (chain): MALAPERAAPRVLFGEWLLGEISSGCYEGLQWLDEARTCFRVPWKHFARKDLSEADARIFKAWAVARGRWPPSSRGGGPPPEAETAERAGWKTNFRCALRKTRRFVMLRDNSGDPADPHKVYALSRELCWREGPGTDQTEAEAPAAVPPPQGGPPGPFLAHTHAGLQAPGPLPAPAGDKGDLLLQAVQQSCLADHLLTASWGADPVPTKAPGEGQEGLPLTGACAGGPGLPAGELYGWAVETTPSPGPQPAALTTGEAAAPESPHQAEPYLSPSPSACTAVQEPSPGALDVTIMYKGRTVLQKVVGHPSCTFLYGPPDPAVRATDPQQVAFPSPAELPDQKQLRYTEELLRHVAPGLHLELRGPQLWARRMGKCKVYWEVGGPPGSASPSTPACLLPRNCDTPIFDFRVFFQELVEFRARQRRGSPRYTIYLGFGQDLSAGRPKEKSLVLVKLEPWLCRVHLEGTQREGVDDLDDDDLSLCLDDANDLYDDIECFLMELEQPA
GACGATCTAAGTATCGAGACGTGCTAG: 0.431 z-score
AATATGTTCCCTATATAAGGGTGCTAG: 1.82 z-score
GACGGTTTCGGGACTGGGGGCGTGCTA: 5.3 z-score
GACGGAATCCTTTTCCTGACGTGCTAG: 0.451 z-score
TTAGGTATCGCGTTTCGGTTAGTGCTA: 3.06 z-score
GAAGATCTCAGACTGGAGACGTGCTAG: -0.507 z-score
TCACATTTTTTTTTTCAACTGTGCTAG: 1.08 z-score
TCATTTGTCCCTATTTAACTGTGCTAG: 3.85 z-score

Set 5 — method: universal PBM; molecule type: double-stranded DNA, one strand shown; matrix: in vitro; concentration: not given; reading: higher = stronger binding; endpoint: E-score
Target: Sal-like protein 4, full length isoform B (SALL4, Homo sapiens, UniProt Q9UJQ4-2, residues 1-616)
Setting: 8-mer, flanks averaged, mean of replicates
TTCCCGAA: -0.0213
AGGTGAAC: -0.149
CCGTAGCA: -0.00517
GAACGGTC: -0.205
CCGGACCG: -0.408
ACACTACG: -0.0253
AGAGCCCT: -0.156
ACCCTACC: -0.117

Other studies, line by line
NC1=NC(=O)C(c2ccccc2)O1 (centres unmarked)
inhibition (Sarcocystis neurona; parasite growth; 10 µM, 96 h, secondary screen): -25.4%

A few entries again (set 2):
CTATCTCCGCATACCACGTCCATATCAGTGAAATTCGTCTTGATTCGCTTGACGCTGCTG: 589 a.u.
CTAGAACTCTTTCAACACCTGACGAATGTATAATTCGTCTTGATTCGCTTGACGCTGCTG: 865 a.u.
CTAGTTCACCGGAAAGCCGTGACAAAAGAGAGTTTCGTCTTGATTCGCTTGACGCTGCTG: 541 a.u.
CTAAATCTAAAAGCTGATGTAGTAGAAGATCCTTTCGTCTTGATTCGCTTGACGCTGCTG: 506 a.u.
CTACGAACGAGGAGTGACGTGGACGCGATGAAGTTCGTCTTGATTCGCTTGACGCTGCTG: 516 a.u.
